Measured values of several laboratories.
± gives the spread as reported.

CC(C)C[C@@H](NC(=O)[C@@H](CCCNC(=N)N)NC(=O)[C@@H](Cc1c[nH]cn1)NC(=O)[C@@H](Cc1c[nH]c2ccccc12)NC(=O)[C@@H](Cc1c[nH]cn1)NC(=O)[C@@H](Cc1ccccc1)NC(=O)[C@H](NC(=O)[C@@H](Cc1ccc(O)cc1)NC(=O)CNC(=O)CNC(=O)CCOCCOCCOCCNC(=O)CN1CCN(CC(=O)O)CCN(CC(=O)O)CC1)[C@H](C)O)C(=O)N[C@H](CC(N)=O)C(=O)N1CCC[C@@H]1C(=O)O [gallium-68 labelled]
tissue uptake (gamma counting; C57BL/6 mice, male, intestines; intravenous, 1.85 MBq, 30 min): 1.15 ± 0.38 %ID/g

CSCC[C@H](NC(=O)CNC(=O)[C@H](CCCCN)NC(=O)[C@H](CC(C)C)NC(=O)[C@@H]1CCCN1C(=O)[C@H](CO)NC(=O)[C@H](Cc1c[nH]cn1)NC(=O)[C@H](Cc1c[nH]c2ccccc12)NC(=O)[C@H](CCCNC(=N)N)NC(=O)[C@H](CC(C)C)NC(=O)[C@H](CCCNC(=N)N)NC(=O)[C@H](Cc1c[nH]c2ccccc12)NC(=O)[C@H](CS)NC(=O)CCCCCNC(=O)CN1CCN(CC(=O)O)CCN(CC(=O)O)CCN(CC(=O)O)CC1)C(=O)O [copper-64 labelled]
tissue uptake (ex vivo biodistribution; male C57BL/6J mice, muscle; intravenous, 1.85 MBq, 30 h, B16-F10 tumour-bearing): 0.43 %ID/g

Cc1ccccc1-c1ccc(-c2nc(-c3ccc(CN(C)CCCC(=O)O)c([18F])c3)no2)cc1C(F)(F)F
tissue uptake (Sprague Dawley rats, male, pancreas; 5 min): 0.83 ± 0.2 %ID/g

C[C@H](O)[C@@H](NC(=O)[C@H]1CCCN1C(=O)[C@@H](CCCCN)NC(=O)[C@@H](CO)NC(=O)[C@@H](Cc1ccc(O)cc1)NC(=O)[C@@H](CC(N)=O)NC(=O)CCOCCOCCOCCNC(=O)CN1CCN(CC(=O)O)CCN(CC(=O)O)CCN(CC(=O)O)CC1)C(=O)N[C@H](CC(=O)O)C(=O)N[C@H](CCCNC(=N)N)C(=O)N[C@H](CCC(N)=O)C(=O)N[C@H](Cc1ccc(O)cc1)C(=O)N[C@H](Cc1c[nH]cn1)C(=O)N[C@H](Cc1ccccc1)C(N)=O [gallium-68 labelled]
tissue uptake (BALB/c nude mice U-87 MG tumour, bone; intravenous, 1.85 MBq, 2 h, radiolabelled): 0.14 ± 0.06 %ID/g

CN1Cc2cc(Cl)ccc2-n2c(nnc2C2CCN(c3cccc([18F])n3)CC2)C1
tissue uptake (C57BL/6 mouse male, adrenal gland; intravenous, 3.7 MBq, 1 min): 10.7 ± 6.78 %ID/g

CC[C@H](C)[C@H](NC(=O)[C@H](CCCNC(=N)N)NC(=O)[C@H](CCCCN)NC(=O)[C@H](Cc1ccc(O)cc1)NC(=O)[C@H](CC(=O)O)NC(=O)[C@H](C)NC(=O)CNC(=O)CCOCCOCCOCCNC(=O)CN1CCN(CC(=O)O)CCN(CC(=O)O)CCN(CC(=O)O)CC1)C(=O)N[C@H](C(=O)N[C@@H](CC(C)C)C(=O)N[C@@H](CCCCN)C(=O)N[C@H](C(=O)N[C@@H](CC(N)=O)C(N)=O)C(C)C)[C@@H](C)O [copper-64 labelled]
tissue uptake (ex vivo gamma counting; C57BL/6J male mice, B16-F10 tumour, liver; intravenous, 1.85 MBq, 100 min): 3.82 ± 1.31 %ID/g

O=C([O-])CNC(=O)CN1CCN(CC(=O)NCC(=O)[O-])CCN(CC(=O)NCC(=O)[O-])CCN(CC(=O)NCC(=O)[O-])CC1.[177Lu+3]
tissue uptake (Sprague-Dawley rat, brain; intravenous (tail vein), dose not given, 2 h): 0.003 ± 0.001 % injected dose/g

CC[C@H](C)[C@H](NC(=O)[C@H](CCCCN)NC(=O)CNC(=O)[C@H](CC(C)C)NC(=O)[C@H](Cc1ccccc1)NC(=O)[C@H](CCCCN)NC(=O)[C@H](CO)NC(=O)[C@H](Cc1ccccc1)NC(=O)[C@H](Cc1c[nH]c2ccccc12)NC(=O)[C@H](CCC(N)=O)NC(=O)[C@@H](NC(=O)[C@H](Cc1ccccc1)NC(=O)CCCCCNC(=O)CN1CCN(CC(=O)O)CCN(CC(=O)O)CCN(CC(=O)O)CC1)C(C)C)C(=O)N[C@@H](CCC(=O)O)C(=O)N1CCC[C@H]1C(=O)N[C@@H](CC(=O)O)C(=O)N[C@H](C(=O)N[C@@H](CO)C(=O)N[C@@H](CCC(N)=O)C(=O)N[C@H](C(=O)N[C@@H](CCC(N)=O)C(=O)N[C@@H](CC(=O)O)C(=O)N1CCC[C@H]1C(=O)N[C@@H](CC(N)=O)C(=O)N[C@@H](CC(=O)O)C(=O)N[C@@H](CCC(N)=O)C(=O)N[C@@H](Cc1ccc(O)cc1)C(=O)N[C@@H](CCC(=O)O)C(=O)N1CCC[C@H]1C(=O)N[C@@H](Cc1ccccc1)C(=O)O)C(C)C)C(C)C [copper-64 labelled]
tissue uptake (C57BL/6 male mouse, tumour-naive, lung; 4 h): 7.43 ± 0.7 %ID/g

CCOP(=O)(CNC(=O)CN1CCN(CC(=O)NCP(=O)(OCC)OCC)CCN(CC(=O)NCP(=O)(OCC)OCC)CCN(CC(=O)NCP(=O)(OCC)OCC)CC1)OCC.[177Lu+3]
tissue uptake (Sprague-Dawley rat, bone; intravenous (tail vein), dose not given, 2 h): 0.053 ± 0.019 % injected dose/g

CCCC[C@H]1C(=O)N(C)[C@@H](CCCC)C(=O)N[C@@H](CCCNC(=O)CN2CCN(CC(=O)O)CCN(CC(=O)O)CCN(CC(=O)O)CC2)C(=O)N[C@H](C(=O)NCC(N)=O)CSCC(=O)N[C@@H](Cc2ccc(O)cc2)C(=O)N(C)[C@@H](C)C(=O)N[C@@H](CC(N)=O)C(=O)N2CCC[C@H]2C(=O)N[C@@H](Cc2c[nH]cn2)C(=O)N[C@@H](CC(C)C)C(=O)N(C)CC(=O)N[C@@H](Cc2c[nH]c3ccccc23)C(=O)N[C@@H](CO)C(=O)N[C@@H](Cc2c[nH]c3ccccc23)C(=O)N1C [gallium-68 labelled]
tissue uptake (NOD/SCID mice with CHO-hPD-L1 xenograft, muscle; 10 min post injection): 1.21 ± 0.21 %ID/g

Some of these lines once more:
CC[C@H](C)[C@H](NC(=O)[C@H](CCCCN)NC(=O)CNC(=O)[C@H](CC(C)C)NC(=O)[C@H](Cc1ccccc1)NC(=O)[C@H](CCCCN)NC(=O)[C@H](CO)NC(=O)[C@H](Cc1ccccc1)NC(=O)[C@H](Cc1c[nH]c2ccccc12)NC(=O)[C@H](CCC(N)=O)NC(=O)[C@@H](NC(=O)[C@H](Cc1ccccc1)NC(=O)CCCCCNC(=O)CN1CCN(CC(=O)O)CCN(CC(=O)O)CCN(CC(=O)O)CC1)C(C)C)C(=O)N[C@@H](CCC(=O)O)C(=O)N1CCC[C@H]1C(=O)N[C@@H](CC(=O)O)C(=O)N[C@H](C(=O)N[C@@H](CO)C(=O)N[C@@H](CCC(N)=O)C(=O)N[C@H](C(=O)N[C@@H](CCC(N)=O)C(=O)N[C@@H](CC(=O)O)C(=O)N1CCC[C@H]1C(=O)N[C@@H](CC(N)=O)C(=O)N[C@@H](CC(=O)O)C(=O)N[C@@H](CCC(N)=O)C(=O)N[C@@H](Cc1ccc(O)cc1)C(=O)N[C@@H](CCC(=O)O)C(=O)N1CCC[C@H]1C(=O)N[C@@H](Cc1ccccc1)C(=O)O)C(C)C)C(C)C [copper-64 labelled]
tissue uptake (C57BL/6 male mouse, tumour-naive, lung; 4 h): 7.43 ± 0.7 %ID/g
